Published values collected from several papers.
Lines come from different studies, so protocols differ. ± marks the error that the study gave.
SLC47A2: Multidrug and toxin extrusion protein 2 (SLC47A2, Homo sapiens, UniProt Q86VL8)
Sequence of UniProt Q86VL8 (whole entry, looked up): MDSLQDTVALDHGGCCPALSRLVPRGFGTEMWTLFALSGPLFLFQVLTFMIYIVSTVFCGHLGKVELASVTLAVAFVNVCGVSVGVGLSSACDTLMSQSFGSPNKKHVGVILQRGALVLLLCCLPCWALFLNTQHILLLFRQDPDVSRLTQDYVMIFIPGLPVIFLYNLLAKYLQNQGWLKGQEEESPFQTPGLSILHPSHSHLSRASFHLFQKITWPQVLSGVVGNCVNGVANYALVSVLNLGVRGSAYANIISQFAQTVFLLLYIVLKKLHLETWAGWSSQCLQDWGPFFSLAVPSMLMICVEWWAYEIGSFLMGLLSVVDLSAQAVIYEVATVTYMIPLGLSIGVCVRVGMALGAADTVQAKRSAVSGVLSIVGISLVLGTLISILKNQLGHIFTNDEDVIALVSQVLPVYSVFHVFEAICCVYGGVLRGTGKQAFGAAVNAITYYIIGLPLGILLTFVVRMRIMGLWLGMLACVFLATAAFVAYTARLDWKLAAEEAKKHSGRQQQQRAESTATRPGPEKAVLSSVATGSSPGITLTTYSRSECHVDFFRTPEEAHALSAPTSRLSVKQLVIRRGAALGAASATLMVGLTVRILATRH
ABCG2: Broad substrate specificity ATP-binding cassette transporter ABCG2 (ABCG2, Homo sapiens, UniProt Q9UNQ0)
Sequence of UniProt Q9UNQ0 (whole entry, looked up): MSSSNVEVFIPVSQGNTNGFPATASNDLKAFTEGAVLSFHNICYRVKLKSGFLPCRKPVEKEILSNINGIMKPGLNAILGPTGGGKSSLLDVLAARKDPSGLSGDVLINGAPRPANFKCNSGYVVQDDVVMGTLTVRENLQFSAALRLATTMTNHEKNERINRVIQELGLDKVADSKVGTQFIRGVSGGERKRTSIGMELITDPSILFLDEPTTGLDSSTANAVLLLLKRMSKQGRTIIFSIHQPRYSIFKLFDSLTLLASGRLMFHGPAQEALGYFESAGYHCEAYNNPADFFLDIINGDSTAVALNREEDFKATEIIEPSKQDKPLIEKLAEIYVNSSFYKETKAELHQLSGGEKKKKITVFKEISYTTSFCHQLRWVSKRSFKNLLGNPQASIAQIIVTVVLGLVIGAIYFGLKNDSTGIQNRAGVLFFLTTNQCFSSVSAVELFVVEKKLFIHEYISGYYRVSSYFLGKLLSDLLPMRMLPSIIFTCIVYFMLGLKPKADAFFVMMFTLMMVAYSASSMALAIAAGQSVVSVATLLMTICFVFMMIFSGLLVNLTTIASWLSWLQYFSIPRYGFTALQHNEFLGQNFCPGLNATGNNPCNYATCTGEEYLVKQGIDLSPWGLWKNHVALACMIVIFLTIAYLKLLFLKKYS
Sequence of UniProt Q9NPD5 (whole entry, looked up): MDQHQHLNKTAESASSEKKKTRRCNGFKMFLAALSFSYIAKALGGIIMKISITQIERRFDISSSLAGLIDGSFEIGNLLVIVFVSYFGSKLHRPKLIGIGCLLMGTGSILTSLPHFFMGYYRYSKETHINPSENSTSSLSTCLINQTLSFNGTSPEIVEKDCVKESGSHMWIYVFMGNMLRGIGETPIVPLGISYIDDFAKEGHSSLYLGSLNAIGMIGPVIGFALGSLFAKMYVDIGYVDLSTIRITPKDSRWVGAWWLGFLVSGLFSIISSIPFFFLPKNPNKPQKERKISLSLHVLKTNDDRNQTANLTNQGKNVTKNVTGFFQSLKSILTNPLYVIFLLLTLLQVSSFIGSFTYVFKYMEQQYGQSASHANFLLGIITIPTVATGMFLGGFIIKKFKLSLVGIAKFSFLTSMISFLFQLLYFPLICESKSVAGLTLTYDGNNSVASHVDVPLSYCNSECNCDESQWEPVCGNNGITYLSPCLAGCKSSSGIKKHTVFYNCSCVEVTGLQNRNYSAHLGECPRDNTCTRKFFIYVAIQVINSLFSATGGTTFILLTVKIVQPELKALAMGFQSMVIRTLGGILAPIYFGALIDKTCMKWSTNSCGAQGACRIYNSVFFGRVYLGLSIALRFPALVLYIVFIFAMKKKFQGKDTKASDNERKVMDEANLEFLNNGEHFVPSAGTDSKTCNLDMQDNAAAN

SMILES | tested on | assay | system | setting | how to read | endpoint | value
CCS(=O)(=O)N1CC(CC#N)(n2cc(-c3ncnc4[nH]ccc34)cn2)C1 | SLC47A2 | transport, inhibitor |  | 50 µM, together with: thiamine |  | inhibition | 88%
Cc1noc2c(NC3CCOCC3)cc(-c3cccc(C(F)(F)F)c3)nc12 | Vero-E6 | CellTiter-Glo ATP |  | concentration not given, 72 h, retest 8-point duplicates | baseline: DMSO 0%, hyamine -100%, more negative, more toxic | cytotoxicity efficacy | -58.8%
CCCC(C(=O)c1ccc(O)c(O)c1)N1CCCC1 (stereo not drawn) |  | LC-MS/MS | rat, trunk blood plasma | subcutaneous, 2 mg/kg MDPV, 240 min |  | plasma concentration | 32.3 ± 3.5 ng/mL
COc1ccc2c(Sc3ccccc3)c(C(=O)NCCCN3CCCCC3)[nH]c2c1 | Vero-E6 | CellTiter-Glo ATP |  | concentration not given, 72 h, retest 8-point duplicates | baseline: DMSO 0%, hyamine -100%, more negative, more toxic | cytotoxicity efficacy | -18.4%
CC(=O)c1c(C)c2cnc(Nc3ccc(C4CCN(CCS(C)(=O)=O)CC4)cn3)nc2n(C2CCCC2)c1=O |  |  | human, plasma | oral, 25 mg, day 1 single dose |  | MRT | 7.67 h
COc1cccc(-c2n[nH]c(SCc3ccccn3)n2)c1OC | Salmonella typhimurium | Ames test, plate incorporation | TA1537 | 1.0 mg/plate, without S9 |  | revertant colonies per plate | 5
CCN(CC)CCNC(=O)c1cc(-c2ccc(Br)s2)nc2ccccc12 | Vero-E6 | CellTiter-Glo ATP |  | 72 h, first round 5-point | baseline: DMSO 0%, hyamine -100%, more negative, more toxic | maximum response | -14.4%
O=c1ccc2ccccc2o1 | HepG2 | refers to: glutathione content |  | concentration not given, 24 h, ATP, GSH, MMP, ROS panel |  | probability of response | 91.9%
CCN(CC)CCNC(=O)c1[nH]c2ccccc2c1Sc1ccc(Cl)cc1 | Vero-E6 | CellTiter-Glo ATP |  | concentration not given, 72 h, retest 8-point duplicates | baseline: DMSO 0%, hyamine -100%, more negative, more toxic | cytotoxicity efficacy | 0%
CNC(=O)c1c(C)oc2cc(Oc3ccnc4cc(OCCN5CCOCC5)ccc34)ccc12 |  |  | human | 6 mg twice daily, cycle 8 |  | haemoglobin level | 19.5 g/dL
CO[C@H]1C[C@@H]2CC[C@@H](C)[C@@](O)(O2)C(=O)C(=O)N2CCCC[C@H]2C(=O)O[C@H]([C@H](C)C[C@@H]2CC[C@@H](OC(=O)NCCOCCOCCOCCOCCOCCOCCOCCOCCC(=O)N3CCc4cc(Cn5nc(-c6ccc7oc(N)nc7c6)c6c(N)ncnc65)ccc4C3)[C@H](OC)C2)C[C@@H](O)[C@H](C)/C=C(\C)[C@@H](O)[C@@H](OC)C(=O)[C@H](C)C[C@H](C)/C=C/C=C/C=C/1C |  |  | patients with advanced solid tumours | intravenous, dose not given, any grade |  | incidence of Diarrhea TEAE | 28.1%
C[C@H]1CN(N=O)CCc2ccc(Cl)cc21 | TK6 |  |  | 10 µM, 4 h, together with: hamster liver S9 | baseline: vehicle | relative survival | 81.4%
O=C1c2c(O)c(=O)ccn2N([C@@H]2c3ccccc3SCc3c2ccc(F)c3F)[C@@H]2COCCN12 |  |  | BALB/c mouse | subcutaneous, 0.5 mg/kg q24h |  | trough concentration | 0.222 ng/mL
CN1CC[C@@H](c2c(O)cc(O)c3c(=O)cc(-c4ccc(C(F)(F)F)cc4Cl)oc23)[C@@H]1CO |  | refers to: Epistaxis | relapsed B-cell malignancies or AML | oral, 50 mg, grade 3-4, continuous dosing |  | patients with adverse event | 0%
CC(=O)N1CCC(C(=O)N2CCN3C(=O)c4cc(-c5ccccc5)ccc4NC(=O)C3C2)CC1 (stereo not drawn) | Salmonella typhimurium |  | TA98 | 500 µg/plate, together with: rat liver S9 | baseline: vehicle | fold increase in revertants | 1
CCCCSCCCNC(=O)C1CCN(Cc2nc(-c3ccc(CC)cc3)oc2C)CC1 | Vero-E6 | CellTiter-Glo ATP |  | 72 h, second round 5-point | baseline: DMSO 0%, hyamine -100%, more negative, more toxic | maximum response | -5.22%
Fc1ccc(C2=CCNCC2)cc1 | Salmonella typhimurium | SOS/umu test | TA1535/pSK1002 | 0.031 mg/mL, 4 h, with S9, full range |  | survival | 88.3%
COc1ccc(-c2cn3c(n2)sc2cc(C(=O)NCCCN4CCCCCC4)ccc23)cc1 | Vero-E6 | CellTiter-Glo ATP |  | concentration not given, 72 h, second round 5-point | baseline: DMSO 0%, hyamine -100%, more negative, more toxic | cytotoxicity efficacy | -28.3%

SMILES | tested on | assay | system | setting | how to read | endpoint | value
O=C(c1ccc(F)c(F)c1Nc1ccc(I)cc1F)N1CC(O)([C@@H]2CCCCN2)C1 |  |  | human patients | oral, 1 mg/kg, dose expansion |  | treatment-related AE causing withdrawal | 8%
COc1cc2c(Oc3ccc4[nH]c(C)cc4c3F)ccnc2cc1OCC1(N)CC1 |  |  | paediatric recurrent refractory sarcoma | 8 mg |  | grade 1 or 2 Nausea | 0%
CN(CCC(Oc1ccc(C(F)(F)F)cc1)c1ccccc1)N=O (stereo not drawn) | TK6 |  |  | 20 h, 4 h, together with: liver S9 |  | micronucleus induction | positive
CCOC(=O)c1c(CSc2ccccc2)n(C)c2cc(Br)c(O)c(CN(C)C)c12 | Solute carrier organic anion transporter family member 1B3 (SLCO1B3, Homo sapiens, UniProt Q9NPD5) | transport, inhibitor | transiently transfected cells | 100 µM, 10 (unit not given), together with: CCK-8 |  | inhibition | 9.1%
CCN(CC)C(=O)[C@@H]1C=C2c3cccc4[nH]cc(c34)C[C@H]2N(C)C1 |  | refers to: numbness of hands and feet | healthy volunteers | dose not given, 0 to 12 h | baseline: placebo, direction not given | List of Complaints score | 2
CN/C(=N\[N+](=O)[O-])NCc1cnc(Cl)s1 |  |  | soil | 0 days, nominal 0.12 |  | recovery | 58%
CCOC(=O)C1=C(CN2CCCC2C(=O)Nc2ccc(B(O)O)cc2)NC(c2nccs2)=NC1c1ccc(F)cc1Br (stereo not drawn) | hepatitis B virus |  | HepDES19 |  | baseline: CC50 over EC50 | selectivity index | 156
NC(=O)c1ncn([C@@H]2O[C@H](CO)[C@@H](O)[C@H]2O)n1 | SLC47A2 | transport, inhibitor | transiently transfected cells | 100 µM, 10 (unit not given), together with: thiamine |  | inhibition | -9.47e-15%
CCCC(C(=O)c1ccc2c(c1)OCO2)N1CCCC1.Cl (racemic) |  |  | rat | subcutaneous, 2 mg/kg, 240 min |  | brain-to-plasma ratio | 8.8 ± 1.4
Cc1cc(C(=O)NC(C)(C)COc2cccc3c2C(N)=NS(=O)(=O)N3)cc(C)n1 | Salmonella typhimurium | Ames test, initial | TA1537 | 1500 µg/plate, together with: rat liver S9 | baseline: solvent control | revertant ratio | 1.1
COc1cc2nc(N3CCN(C(=O)c4ccco4)CC3)nc(N)c2cc1OC | ABCG2 | transport, inhibitor |  | 100 µM, 5 (unit not given), pH 7, together with: CCK-8 |  | inhibition | 31.1%
CC(Nc1nc(N2CCNCC2C)nc2ccccc12)c1ccccc1 (stereo not drawn) | Vero-E6 | CellTiter-Glo ATP |  | concentration not given, 72 h, retest 8-point duplicates | baseline: DMSO 0%, hyamine -100%, more negative, more toxic | cytotoxicity efficacy | 0%
CCC(CC)COC(=O)[C@H](C)N[P@](=O)(OC[C@H]1O[C@@](C#N)(c2ccc3c(N)ncnn23)[C@H](O)[C@@H]1O)Oc1ccccc1 | ABCG2 | transport, inhibitor |  | 100 µM, 5 (unit not given), pH 7, together with: CCK-8 |  | inhibition | 53.8%
CCCC(C(=O)c1ccc(O)c(OC)c1)N1CCCC1 (stereo not drawn) |  | LC-MS/MS | rat, trunk blood plasma | subcutaneous, 2 mg/kg MDPV, 240 min |  | plasma concentration | 86.6 ± 9.3 ng/mL
CCCN(CCC)CCNC(=O)c1cc(-c2ccc(Br)s2)nc2ccccc12 | Vero-E6 | CellTiter-Glo ATP |  | concentration not given, 72 h, second round 5-point | baseline: DMSO 0%, hyamine -100%, more negative, more toxic | cytotoxicity efficacy | 0%
[Cl-].[Cl-].[Pt+2].[Ru+2].c1ccc(-c2nc3ccccc3nc2-c2ccccn2)nc1.c1cnc2c(c1)ccc1cccnc12.c1cnc2c(c1)ccc1cccnc12 | Danio rerio |  | embryos | 75 µM, 0 h |  | survival rate | 100%
O=[N+]([O-])c1ccc(N2CCC(NCCC(O)c3ccc(F)c4ccccc34)CC2)c(C(F)(F)F)c1 (stereo not drawn) | Salmonella typhimurium | genotoxicity, SOS/umu test | TA1535/pSK1002 | 0.004 mg/mL, 4 h, with S9, full range |  | induction factor | 0.86
CC(C)C[C@@H](N)C(=O)N[C@H](CC(C)C)C(=O)N[C@H](Cc1ccccc1)C(=O)N[C@H](Cc1ccccc1)C(=O)N[C@H](C)C(N)=O | NGF-differentiated PC-12 neurons |  |  | 5 µM, 24 h | baseline: untreated | viability | 98.8%
